Assay results pooled from the literature.
A part holds a random share of what one study measured. Several values in a cell are separate wells, animals, samples, runs or records.
Chain of UniProt P10721 (whole entry, unmodified, looked up): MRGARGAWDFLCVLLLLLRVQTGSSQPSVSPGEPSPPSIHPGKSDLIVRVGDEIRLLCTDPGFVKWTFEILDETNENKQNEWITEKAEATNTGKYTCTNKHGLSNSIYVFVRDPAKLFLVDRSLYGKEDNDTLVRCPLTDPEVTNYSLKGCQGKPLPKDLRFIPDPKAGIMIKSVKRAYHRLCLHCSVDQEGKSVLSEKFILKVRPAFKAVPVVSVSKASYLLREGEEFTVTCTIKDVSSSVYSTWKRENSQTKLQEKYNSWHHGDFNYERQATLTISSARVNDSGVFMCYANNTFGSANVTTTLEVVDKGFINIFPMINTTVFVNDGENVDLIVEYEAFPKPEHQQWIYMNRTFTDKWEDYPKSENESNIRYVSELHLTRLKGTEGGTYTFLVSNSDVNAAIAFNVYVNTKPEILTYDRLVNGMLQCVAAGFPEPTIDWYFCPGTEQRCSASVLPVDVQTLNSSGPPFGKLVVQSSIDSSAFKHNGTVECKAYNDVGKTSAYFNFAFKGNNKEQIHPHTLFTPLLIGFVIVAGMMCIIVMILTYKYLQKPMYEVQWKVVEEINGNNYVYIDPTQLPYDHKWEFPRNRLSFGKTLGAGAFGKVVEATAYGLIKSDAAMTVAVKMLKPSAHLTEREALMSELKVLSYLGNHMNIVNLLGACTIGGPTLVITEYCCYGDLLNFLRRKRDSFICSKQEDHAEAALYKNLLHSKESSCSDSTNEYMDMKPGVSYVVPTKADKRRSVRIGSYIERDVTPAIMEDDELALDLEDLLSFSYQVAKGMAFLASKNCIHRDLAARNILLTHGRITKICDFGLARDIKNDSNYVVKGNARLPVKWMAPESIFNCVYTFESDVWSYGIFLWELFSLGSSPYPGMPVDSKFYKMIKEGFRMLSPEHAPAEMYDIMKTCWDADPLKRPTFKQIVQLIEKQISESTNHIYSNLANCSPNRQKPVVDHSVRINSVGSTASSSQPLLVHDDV
Chain of UniProt Q08345 (whole entry, looked up): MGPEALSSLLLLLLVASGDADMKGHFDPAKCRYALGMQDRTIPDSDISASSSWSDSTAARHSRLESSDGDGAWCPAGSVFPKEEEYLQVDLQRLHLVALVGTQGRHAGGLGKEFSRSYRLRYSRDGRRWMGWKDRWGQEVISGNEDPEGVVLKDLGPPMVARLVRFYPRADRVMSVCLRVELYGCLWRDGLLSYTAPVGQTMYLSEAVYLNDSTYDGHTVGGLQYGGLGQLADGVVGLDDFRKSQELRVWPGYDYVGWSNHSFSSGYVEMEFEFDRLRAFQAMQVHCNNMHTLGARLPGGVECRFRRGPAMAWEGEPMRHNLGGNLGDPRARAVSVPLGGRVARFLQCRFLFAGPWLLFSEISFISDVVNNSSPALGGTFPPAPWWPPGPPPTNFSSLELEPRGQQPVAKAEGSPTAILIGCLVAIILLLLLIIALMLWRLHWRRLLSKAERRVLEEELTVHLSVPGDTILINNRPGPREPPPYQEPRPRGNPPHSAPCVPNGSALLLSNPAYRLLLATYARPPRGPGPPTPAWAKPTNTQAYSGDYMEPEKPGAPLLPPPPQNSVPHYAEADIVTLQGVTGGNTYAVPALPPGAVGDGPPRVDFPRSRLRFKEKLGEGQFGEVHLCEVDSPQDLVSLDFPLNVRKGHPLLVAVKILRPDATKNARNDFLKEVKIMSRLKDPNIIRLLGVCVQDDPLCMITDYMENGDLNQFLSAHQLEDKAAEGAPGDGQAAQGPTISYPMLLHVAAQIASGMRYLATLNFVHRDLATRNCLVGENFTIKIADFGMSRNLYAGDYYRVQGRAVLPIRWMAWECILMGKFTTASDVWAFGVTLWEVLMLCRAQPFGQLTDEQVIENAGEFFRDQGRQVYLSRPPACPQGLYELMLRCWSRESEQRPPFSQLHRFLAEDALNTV
Chain of UniProt Q07912 (whole entry, looked up): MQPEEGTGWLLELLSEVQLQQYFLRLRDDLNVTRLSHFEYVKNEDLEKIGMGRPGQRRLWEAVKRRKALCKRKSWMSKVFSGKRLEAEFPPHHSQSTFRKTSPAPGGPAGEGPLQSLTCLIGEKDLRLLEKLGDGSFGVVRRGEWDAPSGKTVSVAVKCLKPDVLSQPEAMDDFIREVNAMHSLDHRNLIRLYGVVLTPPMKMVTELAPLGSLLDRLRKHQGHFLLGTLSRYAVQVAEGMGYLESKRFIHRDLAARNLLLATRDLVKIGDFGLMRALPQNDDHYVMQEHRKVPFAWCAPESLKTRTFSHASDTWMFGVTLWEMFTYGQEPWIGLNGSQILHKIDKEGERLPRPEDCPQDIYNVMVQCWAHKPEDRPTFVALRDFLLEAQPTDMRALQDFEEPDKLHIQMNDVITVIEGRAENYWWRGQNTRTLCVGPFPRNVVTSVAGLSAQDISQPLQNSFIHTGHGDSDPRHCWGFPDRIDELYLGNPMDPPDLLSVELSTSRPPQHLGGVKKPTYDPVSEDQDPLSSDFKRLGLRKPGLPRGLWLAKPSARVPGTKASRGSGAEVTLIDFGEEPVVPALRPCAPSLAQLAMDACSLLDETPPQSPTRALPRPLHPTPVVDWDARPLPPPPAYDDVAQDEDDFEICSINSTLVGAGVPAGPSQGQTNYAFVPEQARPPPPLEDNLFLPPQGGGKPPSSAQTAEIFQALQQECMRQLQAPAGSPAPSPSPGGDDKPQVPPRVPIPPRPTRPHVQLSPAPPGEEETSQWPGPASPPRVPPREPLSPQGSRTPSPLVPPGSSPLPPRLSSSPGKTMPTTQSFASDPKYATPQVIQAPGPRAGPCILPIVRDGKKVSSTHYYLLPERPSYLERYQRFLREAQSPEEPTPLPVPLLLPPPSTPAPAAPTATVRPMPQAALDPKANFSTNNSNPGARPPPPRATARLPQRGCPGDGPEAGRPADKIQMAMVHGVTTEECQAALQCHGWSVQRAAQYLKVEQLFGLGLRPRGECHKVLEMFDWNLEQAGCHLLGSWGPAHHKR
Chain of UniProt P48729 (whole entry, looked up): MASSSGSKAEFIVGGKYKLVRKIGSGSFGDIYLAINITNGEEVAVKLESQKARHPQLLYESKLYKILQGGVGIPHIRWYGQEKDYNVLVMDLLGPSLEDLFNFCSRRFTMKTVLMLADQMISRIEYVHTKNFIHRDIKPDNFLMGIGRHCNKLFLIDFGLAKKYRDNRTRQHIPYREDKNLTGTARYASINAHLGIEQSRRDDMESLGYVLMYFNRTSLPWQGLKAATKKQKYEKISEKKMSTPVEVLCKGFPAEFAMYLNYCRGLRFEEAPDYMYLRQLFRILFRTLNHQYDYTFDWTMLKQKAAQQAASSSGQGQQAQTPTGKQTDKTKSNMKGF
Chain of UniProt O00750 (whole entry, looked up): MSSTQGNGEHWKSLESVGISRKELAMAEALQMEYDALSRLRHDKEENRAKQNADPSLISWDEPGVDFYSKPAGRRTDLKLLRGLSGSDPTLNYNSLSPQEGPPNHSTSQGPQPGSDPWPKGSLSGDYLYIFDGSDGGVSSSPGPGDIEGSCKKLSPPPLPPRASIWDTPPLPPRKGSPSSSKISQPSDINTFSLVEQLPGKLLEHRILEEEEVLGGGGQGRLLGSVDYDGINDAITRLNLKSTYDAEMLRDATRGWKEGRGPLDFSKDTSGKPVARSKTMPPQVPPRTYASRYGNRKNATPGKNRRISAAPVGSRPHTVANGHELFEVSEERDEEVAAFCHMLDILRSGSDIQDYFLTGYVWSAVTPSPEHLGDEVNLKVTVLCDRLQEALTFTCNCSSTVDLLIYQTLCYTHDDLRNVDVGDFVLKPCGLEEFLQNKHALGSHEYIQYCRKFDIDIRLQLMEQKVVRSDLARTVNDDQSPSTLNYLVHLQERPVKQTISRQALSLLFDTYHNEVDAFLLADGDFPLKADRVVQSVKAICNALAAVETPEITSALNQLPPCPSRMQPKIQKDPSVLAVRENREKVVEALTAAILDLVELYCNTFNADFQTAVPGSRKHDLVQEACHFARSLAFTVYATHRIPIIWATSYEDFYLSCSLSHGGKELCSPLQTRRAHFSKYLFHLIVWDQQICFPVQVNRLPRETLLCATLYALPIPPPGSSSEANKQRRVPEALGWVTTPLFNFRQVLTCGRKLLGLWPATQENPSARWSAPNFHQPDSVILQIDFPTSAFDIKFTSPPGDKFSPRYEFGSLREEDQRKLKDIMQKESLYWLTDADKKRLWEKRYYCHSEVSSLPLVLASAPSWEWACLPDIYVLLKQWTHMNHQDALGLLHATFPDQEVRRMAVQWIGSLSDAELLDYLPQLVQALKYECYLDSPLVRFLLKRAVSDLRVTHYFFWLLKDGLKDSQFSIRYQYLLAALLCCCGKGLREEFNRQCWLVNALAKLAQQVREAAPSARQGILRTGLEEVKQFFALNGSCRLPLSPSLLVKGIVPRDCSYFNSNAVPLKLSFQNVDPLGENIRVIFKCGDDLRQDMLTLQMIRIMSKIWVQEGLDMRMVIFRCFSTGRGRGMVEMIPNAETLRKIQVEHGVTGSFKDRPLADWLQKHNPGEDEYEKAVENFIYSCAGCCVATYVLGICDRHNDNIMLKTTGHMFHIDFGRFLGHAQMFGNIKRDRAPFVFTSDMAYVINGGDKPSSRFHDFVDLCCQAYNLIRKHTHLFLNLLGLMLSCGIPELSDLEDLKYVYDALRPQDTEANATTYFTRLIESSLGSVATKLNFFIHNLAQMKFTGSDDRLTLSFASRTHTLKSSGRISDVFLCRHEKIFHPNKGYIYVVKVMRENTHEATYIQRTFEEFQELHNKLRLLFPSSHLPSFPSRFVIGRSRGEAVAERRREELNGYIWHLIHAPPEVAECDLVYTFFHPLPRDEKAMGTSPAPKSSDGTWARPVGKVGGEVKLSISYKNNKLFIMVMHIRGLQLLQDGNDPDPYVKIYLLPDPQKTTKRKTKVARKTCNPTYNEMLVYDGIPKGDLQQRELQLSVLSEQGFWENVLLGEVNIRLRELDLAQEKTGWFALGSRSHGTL

Series 1
Structure (SMILES): C[C@H](NC(=O)c1cnc2n1[C@](C)(Cc1ccc(C#N)cc1)C(=O)N2c1cc(Cl)c(F)c(Cl)c1)C(=O)NC1(c2ccccn2)CC1
Read-out: cell-free assay
Method: competition with immobilised ligand
Tested at: 1 µM
target | remaining binding [%]
KIT (Homo sapiens, UniProt P10721, V559D/V654A) | 100
KIT (Homo sapiens, UniProt P10721, L576P) | 83
FGFR4 (Homo sapiens, UniProt P22455) | 100
CSNK1A1 (Homo sapiens, UniProt P48729) | 100
PIK3C2B (Homo sapiens, UniProt O00750) | 85
TNK2 (Homo sapiens, UniProt Q07912) | 94
TAOK1 (Homo sapiens, UniProt Q7L7X3) | 86
KIT (Homo sapiens, UniProt P10721) | 91
CAMK2A (Homo sapiens, UniProt Q9UQM7) | 96
MAP3K14 (Homo sapiens, UniProt Q99558) | 100
MAP4K5 (Homo sapiens, UniProt Q9Y4K4) | 94
BRSK1 (Homo sapiens, UniProt Q8TDC3) | 100
DDR1 (Homo sapiens, UniProt Q08345) | 100
AKT1 (Homo sapiens, UniProt P31749) | 100
EGFR (Homo sapiens, UniProt P00533, L861Q) | 100
SRMS (Homo sapiens, UniProt Q9H3Y6) | 100
STK38 (Homo sapiens, UniProt Q15208) | 96
PLK2 (Homo sapiens, UniProt Q9NYY3) | 75
SBK3 (Homo sapiens, UniProt P0C264) | 100
NTRK2 (Homo sapiens, UniProt Q16620) | 100

Series 2
Method: PRP chromatography estimate
Sample: 1,9-decadiene/PBS
pH: 7.4
Compound | logD
CC(C)C[C@@H]1NC(=O)[C@H](CC(C)C)NC(=O)[C@@H](C(C)C)NC(=O)[C@H](C(C)C)NC(=O)[C@H](C)NC(=O)[C@H](Cc2cscn2)NC(=O)[C@H](CCC(=O)N2CCCC2)NC1=O | -2.51
CC(C)C[C@@H]1NC(=O)[C@H](CC(C)C)NC(=O)[C@H](CC(C)C)NC(=O)[C@H](C(C)C)NC(=O)[C@H](C)NC(=O)[C@H](CCC(=O)N2CCCC2)NC(=O)[C@H](C)NC1=O | -2.4
CC(C)C[C@@H]1NC(=O)[C@H](CC(C)C)NC(=O)[C@H](CC(C)C)NC(=O)[C@H](Cc2cscn2)NC(=O)[C@@H](CCC(=O)N2CCCC2)NC(=O)[C@H](Cc2cscn2)NC(=O)[C@H](C)NC1=O | -2.68
CC(C)C[C@@H]1NC(=O)[C@H](Cc2cscn2)NC(=O)[C@H](C)NC(=O)[C@@H](CC(C)C)NC(=O)[C@@H](CCC(=O)N2CCCC2)NC(=O)[C@H](CC(C)C)NC(=O)[C@@H](CC(C)C)NC1=O | -0.765

Series 3
Species: mouse
Sample: microsomes or S9
Tested at: 2 µM
Time: 0.5 h
SMILES | remaining compound [%]
CC(=O)N(Cc1ccc(F)cc1)c1ccsc1C(=O)O | 92.2
COc1cc2c(cc1OC)/C(=N\c1ccccc1)N(Cc1ccccc1F)CC2 | 0.245
Cc1ccn(-c2ccc(NS(=O)(=O)c3ccc4c(c3)Cc3ccccc3-4)cc2)n1 | 34
COc1cc(=O)n(C)cc1C(=O)NCc1nc(C)no1 | 74.7
CCOc1cc(=O)n2c(c1C(=O)NCc1ccccn1)CCCCC2 | 86.8
Cc1csc2c(N3CCC(S(=O)(=O)NC(C)C)C3)ncnc12 (centres unmarked) | 0.404

Series 4
Cell line: A-375
Tested at: 100 µM
Time: 18 h
Compound | viability [%]
CCN1CC(CCN2CCOCC2)C(c2ccccc2)(c2ccccc2)C1=O (centres unmarked) | 87.6
Cc1ccccc1C(=O)Nc1ccc(C(=O)N2CCCC(N(C)C)c3ccccc32)cc1 (centres unmarked) | 85.6
O=C(C1CCCCC1)N1CC(=O)N2CCc3ccccc3C2C1 (centres unmarked) | 95.4
CCCCC(=O)O[C@H]1CC[C@H]2[C@@H]3CCc4cc(O)ccc4[C@H]3CC[C@]12C | 8.54
NCCS | 99.8
Cc1[nH]c(=O)c(C#N)cc1-c1ccncc1 | 88.1

Series 5
Compound: CC(C)(C(=O)O)[C@H](NC(=O)Cc1cccc(I)c1)c1ccc2oc(=O)[nH]c2c1
Method: Incucyte 3D growth
Tested at: 30 µM
Direction: higher = more growth
cell line | setting | spheroid area
NCI-H1437 | 54 h | 2.08e+07 a.u. and 2.29e+07 a.u. and 2.65e+07 a.u. and 2.78e+07 a.u. and 2.04e+07 a.u.
NCI-H358 | 150 h | 5.14e+06 a.u. and 5.72e+06 a.u. and 8.86e+06 a.u. and 7.29e+06 a.u. and 5.24e+06 a.u. and 6.99e+06 a.u.
NCI-H358 | 66 h | 4.15e+06 a.u. and 3.51e+06 a.u.
MEL-JUSO | 432.52 h | 3.21e+07 a.u. and 5.08e+07 a.u. and 2.96e+07 a.u. and 7.29e+07 a.u. and 3.25e+07 a.u. and 2.99e+07 a.u.

Other studies, line by line
SMILES | cell line | assay | setting | endpoint | result
CC(C)S(=O)(=O)c1ccc2nccc(Nc3ccc4scnc4c3)c2c1 | L929 | TNF-α-induced necroptosis, inhibitor, CCK-8 | together with: TNF-α, zVAD | EC50 | 2.49 µM and 4 µM and 4.33 µM

For quick reference, copied from above (series 1):
target | remaining binding [%]
CSNK1A1 (Homo sapiens, UniProt P48729) | 100
SBK3 (Homo sapiens, UniProt P0C264) | 100
KIT (Homo sapiens, UniProt P10721) | 91
EGFR (Homo sapiens, UniProt P00533, L861Q) | 100
